# Published values gathered from unrelated publications.
# A part holds a random share of what one study measured.

# Sample 1 — method: protein-binding microarray; molecule type: double-stranded DNA, one strand shown; medium: in vitro; concentration: 250 nM; setting: 60-bp whole probe; added: salmon DNA 0.4 mg/ml; baseline: random background probes; reading: higher = stronger binding; shared flanks, not repeated: GCCTAGCAC … GTCTTGATTCGCTTGACGCTGCTG
# Target: Interferon regulatory factor 7, full length, phosphomimetic (IRF7, Homo sapiens, UniProt Q92985, residues 1-503, S101K/S471D/S472D/S475D/S476D/S477D/S483D/S484D/S487D)
# Construct (chain): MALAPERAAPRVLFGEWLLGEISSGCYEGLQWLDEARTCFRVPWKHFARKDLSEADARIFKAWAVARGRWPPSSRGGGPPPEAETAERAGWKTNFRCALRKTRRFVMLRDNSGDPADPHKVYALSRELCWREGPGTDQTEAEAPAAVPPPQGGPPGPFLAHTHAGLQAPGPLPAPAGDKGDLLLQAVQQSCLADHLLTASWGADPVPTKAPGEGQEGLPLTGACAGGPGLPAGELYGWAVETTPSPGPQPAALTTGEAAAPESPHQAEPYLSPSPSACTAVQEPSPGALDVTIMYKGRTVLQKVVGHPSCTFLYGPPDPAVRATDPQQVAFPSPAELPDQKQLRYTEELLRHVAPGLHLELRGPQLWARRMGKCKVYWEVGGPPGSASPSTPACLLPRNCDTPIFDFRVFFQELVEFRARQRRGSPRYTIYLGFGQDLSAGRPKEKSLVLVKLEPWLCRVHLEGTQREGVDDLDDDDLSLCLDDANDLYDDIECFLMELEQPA
Strand,log fluorescence
TCATTTTTCATTTTTTTACTGTGCTAG,1.61 z-score
GACGATTCCAATTTCGAGACGTGCTAG,1.03 z-score
TTAGGTATCGGTATTGGTTAGTGCTAG,1.47 z-score
CATTCTCTGCTTCTGTATGGGTGCTAG,2.12 z-score
TCAATCATTGTTTTCAGACTGTGCTAG,0.243 z-score
GACGGAATCGGGTTTCGGGACGTGCTA,2.89 z-score
GACGGATTCGGGTTTCGGGACGTGCTA,4.92 z-score
TTAGATTCCAGCTTCGATTAGTGCTAG,1.35 z-score
GATAATTTATAAATAAAAAAGTGCTAG,0.0498 z-score
TTAGATCTCAGTAACGATTAGTGCTAG,0.398 z-score
TTAGATTTCGGGTATGGATTAGTGCTA,0.761 z-score
TCACCTTTCAATCCTAGACTGTGCTAG,0.954 z-score
TCATAACTCATTTTCATACTGTGCTAG,0.436 z-score
GACGGTATCCTTCTCCTAACGTGCTAG,0.491 z-score
AAATTCTGATATAATTCAAAGTGCTAG,0.13 z-score
CTAGGACTGGACTATCGGTTAGTGCTA,0.0881 z-score
AACTGCTGCCGTCCACCACTGTGCTAG,-0.5 z-score
TCAACTCCAGTTCTGGGACTGTGCTAG,-0.43 z-score
TCACTTTTGCTTGTTCTTACTGTGCTA,0.561 z-score
ATATATGTATATATGTGTATGTGCTAG,0.581 z-score
TCACTTCTGGATTTTTTACTGTGCTAG,0.688 z-score
TTAGGTCTCGACACTGGGTTAGTGCTA,0.031 z-score
ATAGATATCAGTCTCGATTAGTGCTAG,1.48 z-score
CTAGGACTGGGTATCGGTTAGTGCTAG,1.01 z-score
GACGGTTCCGGTTTTGGGACGTGCTAG,4.33 z-score

# Sample 2 — method: protein-binding microarray; molecule type: double-stranded DNA, one strand shown; medium: in vitro; concentration: not given; reading: higher = stronger binding
# Target: Protein C-ets-1 (ETS1, Homo sapiens, UniProt P14921, residues 1-441, full length assumed)
# Sequence of UniProt P14921 (whole entry, looked up): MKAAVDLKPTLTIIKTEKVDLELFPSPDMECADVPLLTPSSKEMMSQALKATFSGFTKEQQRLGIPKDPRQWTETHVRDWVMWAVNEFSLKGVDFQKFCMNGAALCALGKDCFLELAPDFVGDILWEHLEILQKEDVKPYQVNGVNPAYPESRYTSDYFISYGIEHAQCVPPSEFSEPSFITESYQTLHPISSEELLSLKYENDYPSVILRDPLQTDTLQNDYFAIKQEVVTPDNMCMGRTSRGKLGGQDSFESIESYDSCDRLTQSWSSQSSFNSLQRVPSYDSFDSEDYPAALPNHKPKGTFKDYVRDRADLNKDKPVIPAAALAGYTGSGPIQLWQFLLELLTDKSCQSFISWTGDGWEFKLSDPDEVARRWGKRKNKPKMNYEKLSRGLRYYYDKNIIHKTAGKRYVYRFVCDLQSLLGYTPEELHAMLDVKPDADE
# Setting: k-mer, scored over probes, only values ≥0.25
Strand,E-score
AGGGCGGA,0.364
CCGGGTAC,0.31
CCCACATC,0.271
CCGTATCC,0.433
AATTTCCG,0.482
CATTTCCG,0.489
TCCCGCCA,0.292
CCAGCGGA,0.295
AATACGGA,0.258
CGCGGAAG,0.427
GCGTATCC,0.266
CTCGGAAA,0.302
GCCGGGAA,0.359
ATATCCTA,0.29
GGAAGACA,0.298
CGGAGGTC,0.283
CCTTCCCA,0.271
GGAAGCCC,0.252
ATCCGTTG,0.365
CATCCCCC,0.314
GAGGATGC,0.322
CCGGAAAC,0.491
CCACGTCC,0.323

# Sample 3 — method: protein binding microarray; molecule type: double-stranded DNA, one strand shown; medium: in vitro; concentration: not given; baseline: not given; reading: higher = stronger binding
# Target: Histone acetyltransferase KAT6A, both winged helices, GST fusion (KAT6A, Homo sapiens, UniProt Q92794, residues 1-181)
# Setting: 8-mer, flanks averaged, mean of 2 arrays, mostly near background
# Residues (chain): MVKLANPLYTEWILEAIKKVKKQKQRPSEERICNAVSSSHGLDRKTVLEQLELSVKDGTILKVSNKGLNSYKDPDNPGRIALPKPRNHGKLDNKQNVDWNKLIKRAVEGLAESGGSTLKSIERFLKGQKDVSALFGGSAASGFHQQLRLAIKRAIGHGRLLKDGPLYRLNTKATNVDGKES
Strand,E-score
CGGTTAAA,0.0133
AGTAGCCA,-0.235
ACATCAGT,-0.0544
CTACGATC,-0.051
ACTCCTGA,-0.14
CGATAGTA,-0.0098
AAACGTTG,-0.0618
TCCTTACA,-0.018
GGGCGACC,-0.0178
GTCCACCA,-0.151
GATGATGC,-0.0121
GCACGTTA,-0.0678
ATGAGTTC,-0.0738
CAAACTGA,-0.047
CTTCTAGC,-0.163
GAGTGAGA,-0.0939
ATTGAACC,-0.0384
CCCTTGCG,0.0223

# Sample 4 — method: competition protein-binding microarray; molecule type: double-stranded DNA, one strand shown; medium: in vitro; concentration: 2 µM; added: Cbf1 competitor, 0.05 µM; reading: higher = stronger binding; shared flanks, not repeated: … GTCTTGATTCGCTTGACGCTGCTG
# Target: Phosphate system positive regulatory protein PHO4, full length, GST-tagged (PHO4, Saccharomyces cerevisiae, UniProt P07270, residues 1-312)
# Setting: whole 60-bp probe, lowest competitor level
# Construct (chain): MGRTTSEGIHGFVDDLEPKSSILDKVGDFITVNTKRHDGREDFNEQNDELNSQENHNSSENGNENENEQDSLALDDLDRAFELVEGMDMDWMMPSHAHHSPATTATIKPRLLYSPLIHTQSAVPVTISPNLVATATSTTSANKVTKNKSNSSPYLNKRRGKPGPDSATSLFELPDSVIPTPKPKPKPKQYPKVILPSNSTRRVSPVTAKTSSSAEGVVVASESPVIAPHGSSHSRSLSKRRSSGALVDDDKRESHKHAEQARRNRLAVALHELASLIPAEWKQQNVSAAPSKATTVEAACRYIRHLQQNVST
Strand,fluorescence intensity [a.u.]
TGCGCAACAACTTGCGTTGTGGGTGTATGTCTAGAA,4720
GCTTTCTAAAGCCGTCACGGCAATAGAAAATTGCGC,2900
GGAGAAGGATTAGATCTCGTGCCGAACGACAGCAAG,10700
CTTTCCCGATCTTGCAATGTGGGTGTAGCACATTTG,7100
TGCGCAACAACTTTTCACGTGGGTTTATGTCTAGAA,13200
TGACAGATGCCATGGCGCTACTGTTGTAGTATTGTA,3840
CTTTCCCGATCTTGTCACTTAACTTTAGCACATTTG,3760
TCTGATAGTTCTACCATCGTGGGTAACAACGTATGG,9970
TGCGCAACAACTTGAGACGTGGGTGTATGTCTAGAA,6750
CTAACGAAGGTTTGCGCCGTGGGTGACAAGCCAAGT,4910
AAAGCGGTAATTTGGGGTGTGGGTGCAGATATCTAT,7540
TGCGCAACAACTTATCACGTGTTTTTATGTCTAGAA,16900
TGCGCAACAACTTGCAGAGTGGGTGTATGTCTAGAA,5410
TTTCCGCACAAGCACCATGTGTGAAAACATGCAGAT,11100
GTTATAAGTGCTTTTCTCGTGCAAATCCCTGACACT,5350
ATCCCTGTCGTTACGGTCGTGCCAGTTACACTGGGA,8020
TGCAAGAGAAAAAGTTGCGTGCGATACTGCCTAGGA,5700
AAAGCGGTAATTTGTACTGTGGGTGCAGATATCTAT,3780
TTTTCTTGGTCAAGGTCTGTGATATCCCCTTCCGGT,2710

# Sample 5 — method: universal PBM; molecule type: double-stranded DNA, one strand shown; medium: in vitro; concentration: 600 nM; reading: higher = stronger binding
# Target: Sal-like protein 4, full length isoform A (SALL4, Homo sapiens, UniProt Q9UJQ4, residues 1-1053)
# Sequence of UniProt Q9UJQ4 (whole entry, looked up): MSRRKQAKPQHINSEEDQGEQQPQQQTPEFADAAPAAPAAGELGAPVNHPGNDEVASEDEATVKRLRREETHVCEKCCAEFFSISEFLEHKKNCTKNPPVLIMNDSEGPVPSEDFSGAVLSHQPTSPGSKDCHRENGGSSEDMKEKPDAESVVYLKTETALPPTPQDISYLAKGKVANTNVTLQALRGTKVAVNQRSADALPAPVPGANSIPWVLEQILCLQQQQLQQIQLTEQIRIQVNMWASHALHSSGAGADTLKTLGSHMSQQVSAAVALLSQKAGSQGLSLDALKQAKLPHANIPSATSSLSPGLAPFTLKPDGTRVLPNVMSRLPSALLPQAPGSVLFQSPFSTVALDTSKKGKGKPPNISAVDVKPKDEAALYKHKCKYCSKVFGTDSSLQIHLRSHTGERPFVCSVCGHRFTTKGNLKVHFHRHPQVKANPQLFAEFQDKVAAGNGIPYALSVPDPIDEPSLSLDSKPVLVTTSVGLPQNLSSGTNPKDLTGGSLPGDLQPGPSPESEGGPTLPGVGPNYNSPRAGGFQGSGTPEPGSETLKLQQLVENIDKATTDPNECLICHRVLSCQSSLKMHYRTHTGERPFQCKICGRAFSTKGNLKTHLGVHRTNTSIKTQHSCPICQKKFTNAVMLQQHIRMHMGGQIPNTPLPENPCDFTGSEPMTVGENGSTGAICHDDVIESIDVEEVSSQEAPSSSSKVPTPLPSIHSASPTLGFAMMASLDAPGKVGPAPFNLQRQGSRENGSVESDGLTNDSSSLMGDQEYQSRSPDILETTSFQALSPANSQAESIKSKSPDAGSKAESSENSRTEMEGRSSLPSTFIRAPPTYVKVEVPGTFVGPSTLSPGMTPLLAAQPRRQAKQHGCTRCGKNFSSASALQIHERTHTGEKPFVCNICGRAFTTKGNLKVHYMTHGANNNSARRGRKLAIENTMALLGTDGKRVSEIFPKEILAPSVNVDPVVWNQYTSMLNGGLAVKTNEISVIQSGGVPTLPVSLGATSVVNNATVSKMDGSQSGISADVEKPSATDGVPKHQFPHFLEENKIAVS
# Setting: 8-mer, flanks averaged, mean of replicates
Strand,E-score
ACCCGGGG,-0.403
AATGAAAA,0.316
ACGCAGAC,-0.0993
CTAGCAGC,-0.17
GGACAGCA,-0.0808
ATAGGTGC,-0.0121
AGTCCACT,-0.0474
CTCGTTCA,0.0699
GCCTTGAA,-0.0999
GGGAGGAC,-0.184
ACCCAGGT,-0.362
ACGTACCC,-0.166
CGGCGACA,-0.196
CAGGTAGC,-0.292
CCACCTTC,-0.202
CGCTAACC,-0.246
ACAGCTAT,0.105
AATCGAAC,0.018
CGCTAAGA,-0.102
ATAAGAGG,0.127
AGCTCGGA,-0.261
CTAATTGC,0.102
TAATTCAA,0.325
CCCACCCA,-0.153
TCTAGGCA,-0.0185

# Some of these lines once more (sample 2):
Strand,E-score
GCGTATCC,0.266
CATCCCCC,0.314
CCACGTCC,0.323
GCCGGGAA,0.359
GAGGATGC,0.322
CCCACATC,0.271
ATCCGTTG,0.365
CGGAGGTC,0.283
CCAGCGGA,0.295
GGAAGACA,0.298
AATACGGA,0.258
